Experimental data pooled from the literature.
Each line is one published result; not all experiments were run side by side. Several values in a cell are separate wells, animals, samples, runs or records. ± gives the spread as reported.

CC(C)(C(=O)NC1C2CC3CC1CC(C(N)=O)(C3)C2)N1CCN(c2ccc(C(F)(F)F)cn2)CC1 (stereo not shown)  dose-normalised AUC(0-24) (refers to: metabolite; human, CSF; oral, 50 mg once daily, 5 days, median): 0.57 (ng·h/mL)/mg
COc1cccc(Oc2ccccc2NC(=O)CNC(=O)c2cccc3ccccc23)c1  sodium/potassium ratio (esterase-deficient SCID mice, male; oral, 100 mg/kg/day, 14 days, toxicity study): 19 and 17
Clc1ccc(-c2ccccc2)cc1  creatinine (Sprague-Dawley rats, female, serum; inhalation, 23 µg/rat, 1 h after exposure): 0.4 ± 0.1 mg/dL
N=C(N)NCCC[C@@H](NC(=O)[C@@H](N)Cc1ccccc1)C(=O)N[C@@H](Cc1ccccc1)C(=O)N[C@@H](CCCCN)C(N)=O  fraction of dose excreted in urine (early Huntington's disease patients, urine; subcutaneous, 5 mg, 5.833 h, mean): 21.7%
CC(=O)c1c(C)c2cnc(Nc3ccc(C4CCN(CCS(C)(=O)=O)CC4)cn3)nc2n(C2CCCC2)c1=O  AUC(0-t) (human patients, plasma; oral, 100 mg twice daily, day 1 single dose, together with: fulvestrant): 872 ng·h/mL
Cc1nc(Nc2ccc(CC(=O)O)cc2)nc(Nc2ccc(F)c(C(F)(F)F)c2)c1C  serum creatinine (mice, chronic ethanol plus binge; intraperitoneal, 0.3 mg/kg daily, ethanol diet 4 weeks, dosed last two; baseline: vehicle): no effect
O=S(=O)(Nc1ccccc1)c1ccc(NC(=S)Nc2ccccc2)cc1  serum enzyme activity (refers to: ALKP; male mouse, blood; oral, 80 mg/kg daily, 14 days): 138 U/L
CCC[C@@](N)(CO)CCc1ccc(OCCCCCC(C)C)cc1  AUC(0-inf) (dog, male hounds, plasma; oral capsule, 5 mg/kg, geometric mean): 7.43 µM·h
CCc1ccc(CC/C=C/c2ccc3c(c2)C(=O)CC3)cc1  MCHC (Sprague-Dawley rat, male; oral, 450 mg/kg/day, 14 days): 314 g/L
C[C@]1(CO)Cc2ncn(-c3ccc(C#N)c(Cl)c3)c2C(=O)O1  subjects with drug-related TEAE (healthy Chinese subjects; dose not given, single dose, all doses): 20.8%
C=C(CN(C(=O)c1c(C(F)F)nn(C)c1F)C1CC1)c1ccc(Cl)cc1Cl  mortality (static acute toxicity test; zebrafish (Brachydanio rerio); 0.694 mg a.i./L, 96 h): 10%
CO[C@H]1C[C@@H]2CC[C@@H](C)[C@@](O)(O2)C(=O)C(=O)N2CCCC[C@H]2C(=O)O[C@H]([C@H](C)C[C@@H]2CC[C@@H](OC(=O)NCCOCCOCCOCCOCCOCCOCCOCCOCCC(=O)N3CCc4cc(Cn5nc(-c6ccc7oc(N)nc7c6)c6c(N)ncnc65)ccc4C3)[C@H](OC)C2)C[C@@H](O)[C@H](C)/C=C(\C)[C@@H](O)[C@@H](OC)C(=O)[C@H](C)C[C@H](C)/C=C/C=C/C=C/1C  any TRAE incidence (phase 1 dose escalation; advanced solid tumour patients; intravenous, 6 mg weekly, grade ≥3): 33.3%
CCN(CC)CCCC(C)Nc1c2ccc(Cl)cc2nc2ccc(OC)cc12 (stereo not shown)  CC50 (human cells; 48 (unit not given)): 7.63 µM
Clc1cc2c(cc1Cl)Oc1cc(Cl)c(Cl)cc1O2  mRNA level (RNA-Seq, refers to: Cyp2c24; female Sprague-Dawley rat, liver; dose not given; baseline: vehicle): 3.3 fold
COc1cc2c(Oc3ccc4[nH]c(C)cc4c3F)ccnc2cc1OCC1(N)CC1  Fever incidence (paediatric refractory sarcoma patients; 12 mg): 9.1%
Cn1c(-c2ccc(C(N)=O)cc2F)nnc1C(C)(C)Oc1c(F)cc(Cl)cc1F  subjects with drug-related TEAE (human; oral, 6 mg, single ascending dose): 33.3%
C[C@H]1CN(C(=O)CC#N)[C@]12CCN(c1ncnc3[nH]ccc13)C2  Cmax at NOAEL (rat female; oral, 30 mg/kg repeated daily, 3 months, repeated-dose toxicity study): 5340 ng/mL
CC(C)(c1ccccc1)c1cc(-n2nc3ccccc3n2)c(O)c(C(C)(C)c2ccccc2)c1  daily dermal uptake, percentile (exposure assessment; human, age 16-21 years; concentration not given, spray sunscreen, 95th percentile): 50.6 ng/kg body weight/day
CC(C)C[C@H](NC(=O)[C@H](CCCCN)NC(=O)OCC1c2ccccc2-c2ccccc21)C(=O)N[C@H](C(=O)N[C@@H](Cc1ccccc1)C(=O)N[C@@H](Cc1ccccc1)C(=O)N[C@@H](CCCCN)C(=O)NCC(=O)N[C@@H](Cc1ccccc1)C(=O)N[C@@H](C)C(=O)N[C@@H](Cc1c[nH]c2ccccc12)C(=O)N[C@@H](CC(N)=O)C(=O)N[C@H](C(=O)N[C@H]1CSSC[C@@H](C(=O)N[C@@H](Cc2c[nH]cn2)C(=O)N[C@@H](CCCNC(=N)N)C(=O)N[C@@H](CCCNC(=N)N)C(=O)N[C@@H](C)C(=O)N[C@@H](CC(N)=O)C(N)=O)NC(=O)[C@H](C(C)C)NC(=O)[C@H](CCCNC(=N)N)NC(=O)[C@H](C(C)C)NC(=O)CNC(=O)[C@H](CC(N)=O)NC(=O)[C@H](CCCNC(=N)N)NC(=O)[C@H](Cc2ccc(O)cc2)NC(=O)[C@H](C(C)C)NC1=O)C(C)C)C(C)C  albumin (ICR mouse, blood; intramammary, 5 mg/kg, day 5, 3 d dosing): 33.6 ± 1.21 g/L
Cc1ccc(NC(=O)c2ccnc(C(F)(F)F)c2)cc1-c1cc(OCCO)nc(N2CCOCC2)c1  maximum tolerated dose (human; twice daily, single agent): 600 mg
CN1CC[C@@H](c2c(O)cc(O)c3c(=O)cc(-c4ccc(C(F)(F)F)cc4Cl)oc23)[C@@H]1CO  patients with adverse event (refers to: Pyrexia; B-cell malignancies; oral, 200 mg, intermittent dosing): 0%
Cc1cc(C)c(CNC(=O)c2cc(Cl)c3c(c2C)O[C@@](C)([C@H]2CC[C@H](N(C)C)CC2)O3)c(=O)[nH]1  Arthralgia incidence (human, relapsed/refractory NHL; concentration not given, all TEAEs, grade 5): 0%
O=C(Nc1ccccc1)C1CCN(C(=O)Oc2cccnc2)CC1  change in contentment score (Bond-Lader VAS; healthy women; oral, 20 mg; baseline: pre-dose baseline, direction not given): 8.1
COc1ccc(-c2c(-c3ccc(C#N)c(F)c3)nc(N3CCC(N)CC3)n(C)c2=O)cc1F  treatment-related adverse event incidence (refers to: Dysgeusia; relapsed/refractory marginal zone lymphoma patients; oral, 60 mg, any grade, dose expansion): 0%
COc1ccc2nc3cc(Cl)ccc3c(Nc3cc(CN4CCCC4)c(O)c(CN4CCCC4)c3)c2n1  platelet distribution width (mouse, blood; intraperitoneal, 14 mg/kg): 15.5%
C[C@@H](NC(=O)N1C(=O)[C@H](Cc2ccnc(N)c2)[C@H]1C(=O)O)C1CCCCC1  incidence of serious AEs (healthy adult Chinese volunteers; continuous intravenous infusion, 1.5 mg/kg/h, 5-day infusion, CTCAE 5.0 grading): 0%
C=C(C)[C@@H]1CCC(C)=C[C@H]1c1c(O)cc(CCC)c(C(=O)O)c1O  plasma concentration (LC-MS/MS; Scn1a+/− mice, plasma; intraperitoneal, 30 mg/kg, after hyperthermia protocol): 45000 ± 6000 ng/mL
CN(C)c1cccc2c(S(=O)(=O)N3CCN(c4ccccc4)CC3)cccc12  Stokes shift (toluene; 20 °C): 162 nm
CC(C)(O)c1cc(Nc2cc(Oc3cn(C4CC4)nc3C3CCOCC3)ccn2)ccn1  treatment-related adverse events (Thrombocytopenia; patients with advanced cancer, Japanese cohort; oral, dose not given, grade ≥3): 0%
COc1ccnc(C(=O)N[C@H]2COC(=O)[C@H](Cc3ccccc3)[C@@H](OC(=O)C(C)C)[C@H](C)OC2=O)c1OCOC(=O)C(C)C  DT50 water (Staffordshire loam sediment, aerobic dark; 20 °C): 0.12 days
Cn1c(=O)c2c(ncn2C)n(C)c1=O  acceptor concentration (PAMPA; pre-coated trilayer membrane; 200 µM, 5 h, pH 7.4, acceptor plate, PBS): 43.6 ± 5 µM
CCN1[C@@H](C(=O)NC23CCC(C(=O)O)(CC2)CC3)[C@H](c2cccc(Cl)c2F)[C@]2(C(=O)Nc3cc(Cl)ccc32)C12CCCCC2  grade ≥3 vomiting incidence (patients with advanced solid tumours; oral, 150 mg): 12.5%
Cc1cccc(Cn2nc(C3CC3)c3c(NC(=O)c4cnc5cc(OCCN6CCN(C)CC6)ccn45)cccc32)n1  all-cause adverse events (CTCAE v4.03, refers to: blood alkaline phosphatase increased; pancreatic ductal adenocarcinoma patients; oral, dose not given, together with: pembrolizumab IV every 3 weeks): 14.8%
O=C(O)CNCP(=O)(O)O  dose fraction in milk fat (whole cow milk; 200 nM nominal): 0.97%

Some of these lines once more:
O=S(=O)(Nc1ccccc1)c1ccc(NC(=S)Nc2ccccc2)cc1  serum enzyme activity (refers to: ALKP; male mouse, blood; oral, 80 mg/kg daily, 14 days): 138 U/L
CN(C)c1cccc2c(S(=O)(=O)N3CCN(c4ccccc4)CC3)cccc12  Stokes shift (toluene; 20 °C): 162 nm
Clc1ccc(-c2ccccc2)cc1  creatinine (Sprague-Dawley rats, female, serum; inhalation, 23 µg/rat, 1 h after exposure): 0.4 ± 0.1 mg/dL
CC(C)C[C@H](NC(=O)[C@H](CCCCN)NC(=O)OCC1c2ccccc2-c2ccccc21)C(=O)N[C@H](C(=O)N[C@@H](Cc1ccccc1)C(=O)N[C@@H](Cc1ccccc1)C(=O)N[C@@H](CCCCN)C(=O)NCC(=O)N[C@@H](Cc1ccccc1)C(=O)N[C@@H](C)C(=O)N[C@@H](Cc1c[nH]c2ccccc12)C(=O)N[C@@H](CC(N)=O)C(=O)N[C@H](C(=O)N[C@H]1CSSC[C@@H](C(=O)N[C@@H](Cc2c[nH]cn2)C(=O)N[C@@H](CCCNC(=N)N)C(=O)N[C@@H](CCCNC(=N)N)C(=O)N[C@@H](C)C(=O)N[C@@H](CC(N)=O)C(N)=O)NC(=O)[C@H](C(C)C)NC(=O)[C@H](CCCNC(=N)N)NC(=O)[C@H](C(C)C)NC(=O)CNC(=O)[C@H](CC(N)=O)NC(=O)[C@H](CCCNC(=N)N)NC(=O)[C@H](Cc2ccc(O)cc2)NC(=O)[C@H](C(C)C)NC1=O)C(C)C)C(C)C  albumin (ICR mouse, blood; intramammary, 5 mg/kg, day 5, 3 d dosing): 33.6 ± 1.21 g/L
